Measurements gathered from unrelated publications.
Parts stem from different laboratories: compare values within a part only.

Study 1
Target: Transcription factor Sp1 (SP1, Homo sapiens, UniProt P08047, residues 1-785, full length assumed)
UniProt P08047, sequence (whole entry, looked up): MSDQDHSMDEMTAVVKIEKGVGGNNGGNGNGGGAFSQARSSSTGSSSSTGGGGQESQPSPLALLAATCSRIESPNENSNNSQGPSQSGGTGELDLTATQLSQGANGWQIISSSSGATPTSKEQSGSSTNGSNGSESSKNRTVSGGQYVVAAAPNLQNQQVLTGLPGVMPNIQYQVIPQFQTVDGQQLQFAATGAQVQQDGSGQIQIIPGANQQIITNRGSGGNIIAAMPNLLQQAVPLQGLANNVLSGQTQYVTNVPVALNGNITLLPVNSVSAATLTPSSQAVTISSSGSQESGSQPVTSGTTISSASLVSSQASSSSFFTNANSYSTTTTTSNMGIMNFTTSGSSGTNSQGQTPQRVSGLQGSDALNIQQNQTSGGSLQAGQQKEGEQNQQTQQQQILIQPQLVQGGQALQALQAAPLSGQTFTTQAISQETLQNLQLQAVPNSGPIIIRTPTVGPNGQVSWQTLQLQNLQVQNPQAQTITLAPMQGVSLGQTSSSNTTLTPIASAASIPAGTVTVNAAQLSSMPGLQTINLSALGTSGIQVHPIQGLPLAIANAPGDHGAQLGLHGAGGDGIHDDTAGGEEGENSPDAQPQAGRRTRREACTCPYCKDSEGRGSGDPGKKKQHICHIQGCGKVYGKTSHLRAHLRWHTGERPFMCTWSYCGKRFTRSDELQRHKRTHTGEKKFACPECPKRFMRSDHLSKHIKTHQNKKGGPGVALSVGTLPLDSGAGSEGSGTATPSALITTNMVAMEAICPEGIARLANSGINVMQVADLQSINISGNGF
Technique: protein-binding microarray
Form: double-stranded DNA, one strand shown
Sample: in vitro
Tested at: not given
Setting: k-mer, scored over probes, only values ≥0.25
Direction: higher = stronger binding
Measurement: E-score
GGGCGGAC: 0.272
AAAGTGGG: 0.289
CCCTTTAC: 0.339
ATCCCCAA: 0.28
CGACATCA: 0.254
AAGGGGCG: 0.443
TACAATAA: 0.256
ACCACACC: 0.312

Study 2
Target: Ras GTPase-activating protein-binding protein 1, full length (G3BP1, Homo sapiens, UniProt Q13283)
UniProt Q13283, sequence (whole entry, looked up): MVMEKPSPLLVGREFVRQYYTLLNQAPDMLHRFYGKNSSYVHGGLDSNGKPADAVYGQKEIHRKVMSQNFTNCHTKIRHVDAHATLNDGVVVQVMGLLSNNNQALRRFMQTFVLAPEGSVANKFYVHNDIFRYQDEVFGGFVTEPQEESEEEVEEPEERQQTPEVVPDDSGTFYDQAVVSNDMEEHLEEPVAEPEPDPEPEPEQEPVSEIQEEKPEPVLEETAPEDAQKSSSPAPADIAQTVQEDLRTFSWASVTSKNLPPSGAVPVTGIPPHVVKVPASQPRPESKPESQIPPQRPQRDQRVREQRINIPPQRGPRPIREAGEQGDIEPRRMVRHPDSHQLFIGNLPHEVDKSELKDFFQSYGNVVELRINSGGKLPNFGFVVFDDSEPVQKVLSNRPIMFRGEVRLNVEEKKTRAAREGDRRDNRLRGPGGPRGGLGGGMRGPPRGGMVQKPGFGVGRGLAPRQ
Technique: RNA Bind-n-Seq
Form: RNA
Sample: in vitro
Tested at: 200 nM
Setting: whole 134-nt RNA, ends assumed
With: 150 mM LiCl
Reference: input library
Direction: higher = stronger binding
Measurement: log2 enrichment
Library: 7-deaza-guanosine replaces G
All sequences stand within: GGGAGUUCUACAGUCCGACGAUC … UGGAAUUCUCGGGUGUCAAGG
UGUGUGUUAUAUAUUUAUUUUUAAUUGCAGAUGACAGGAUUGGACAUUGAGAAGGACCAGAUUAUUGAGAUGGCCUGUCUGAUAACUGAC: -2.81
UCAAGUCCUGUGCUACACAUCGUAUGUACCGAAUCGGGGUUGGGGUUGGGUUGGGAAAGUAUUAUGUUACGCCGUUCGGAUCUGCACUUC: -0.252
UGGGAGGUGGAUUUUGUUUAUUUUUUUAGCUCAUUUCCAGGGGUGGGAAUUUUUUUGUAAUAUGUGUCAUGAAUAAAGUUGUUUUUGAAA: -0.276
UGUCAUGGAUUCAAGUUAUUAAAAGCAUAAGUUUGGAAGACAGGCUUGCCGAAAUUGAGGACAUGAUUAAAAUUGCAGUGAAGUUUGAAA: -4.29
UCCUGUGCUACACAUCGUAUGUACCGAAUCAAAUUUUUUUAAAUUUUUUUAAACCCAAAAAAGUAUUAUGUUACGCCGUUCGGAUCUGCA: -0.148
AAGUCCUGUGCUACACAUCGUAUGUACCGAAUCGGUGGUUUUUUUGGAAAAAAAGGAAAGUAUUAUGUUACGCCGUUCGGAUCUGCACUU: -1.13
CCUGUGCUACACAUCGUAUGUACCGAAUCGGGGAGGGGAAAAAAAGGGGAAAAAAAGGGGAAAGUAUUAUGUUACGCCGUUCGGAUCUGC: 0.883
CAAGUCCUGUGCUACACAUCGUAUGUACCGAAUCGGCCCCGGGCCCCGGGCCCCGGAAAGUAUUAUGUUACGCCGUUCGGAUCUGCACUU: -0.6

Study 3
Target: Histone acetyltransferase KAT6A, winged helix 2, GST fusion (KAT6A, Homo sapiens, UniProt Q92794, residues 85-181)
Technique: protein binding microarray
Form: double-stranded DNA, one strand shown
Sample: in vitro
Tested at: not given
Setting: 8-mer, flanks averaged, mean of 2 arrays, mostly near background
Reference: not given
Direction: higher = stronger binding
Measurement: E-score
Construct (chain): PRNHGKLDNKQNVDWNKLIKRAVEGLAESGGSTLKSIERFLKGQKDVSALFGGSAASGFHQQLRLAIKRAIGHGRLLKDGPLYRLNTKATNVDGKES
ATTCGTCC: 0.227
CCAGTAGC: 0.0967
AGTCATCG: 0.00686
ACAGCATA: 0.067
CCCCCCGC: 0.139
GCAGATGC: 0.192
ACGCGGCT: -0.0564
AGTTCTGA: 0.0863

Single results of other studies
CC(C)c1cc(C(N)=O)c(NC(=O)/C(=C/c2ccccc2)c2ccccc2)s1 — remaining compound (human, microsomes or S9; 2 µM, 0.5 h): 55.6%
